Measured values pooled from the literature.
Each line is one published result; not all experiments were run side by side. ± gives the spread as reported.

Structure (SMILES)	test	test system	setting	tissue uptake
CCCC[C@H](NC(=O)CNC(=O)CNC(=O)CN1CCN(CC(=O)O)CCN(CC(=O)O)CC1)C(=O)N[C@H]1CC(=O)NCCCC[C@@H](C(N)=O)NC(=O)[C@H](Cc2c[nH]c3ccccc23)NC(=O)[C@H](CCCNC(=N)N)NC(=O)[C@@H](Cc2ccccc2)NC(=O)[C@H](Cc2c[nH]cn2)NC1=O [copper-64 labelled]		female C57 mouse, B16/F1 melanoma, brain	intravenous, 0.037 MBq, 24 h	0.04 ± 0.03 %ID/g
CCCC[C@@H]1NC(=O)[C@@H](NC(=O)[C@H](CCC(=O)O)NC(=O)CNC(=O)CN2CCN(CC(=O)O)CCN(CC(=O)O)CCN(CC(=O)O)CC2)CCCCNC(=O)C[C@@H](C(N)=O)NC(=O)[C@H](C(C)C)NC(=O)[C@@H]2CCCN2C(=O)[C@H](CCCNC(=N)N)NC(=O)CNC(=O)[C@H](Cc2c[nH]c3ccccc23)NC(=O)[C@H](CCCNC(=N)N)NC(=O)[C@@H](Cc2ccccc2)NC(=O)[C@H](Cc2c[nH]cn2)NC(=O)[C@H](CCC(=O)O)NC1=O [gallium-67 labelled]		normal C57 mice, skin	intravenous, 0.037 MBq/mouse, 4 h	0.46 ± 0.15 %ID/g
O=C([O-])CN1CCN(CC(=O)[O-])CCN(CC(=O)NCCc2ccc3c(c2)C2C=CCC2C(c2cc4c(cc2Br)OCO4)N3)CCN(CC(=O)[O-])CC1.[111In+3] (centres unmarked)		mouse, Hec50 endometrial tumour, large intestine	4 h post injection	8.48 ± 0.67 %ID/g
CC(C)[C@H](NC(=O)[C@@H]1CCCN1C(=O)[C@H](CCCNC(=N)N)NC(=O)[C@H](CS)NC(=O)[C@H](Cc1c[nH]c2ccccc12)NC(=O)[C@H](CCCNC(=N)N)NC(=O)[C@@H](Cc1ccccc1)NC(=O)[C@H](Cc1c[nH]cn1)NC(=O)[C@H](CCC(=O)O)NC(=O)[C@H](CS)NC(=O)[C@H](CS)NC(=O)[C@@H]1CC(=O)N[C@@H](CCCNC(=N)N)C(=O)NCC(=O)N[C@@H](CC(=O)O)C(=O)N[C@H](Cc2ccc(O)cc2)C(=O)N1)C(N)=O [technetium-99m labelled]		C57 mouse, female, B16/F1 melanoma, heart	intravenous, 0.037 MBq, 24 h	0.08 ± 0.03 %ID/g
CCCC[C@H](NC(=O)CNC(=O)CNC(=O)CN1CCN(CC(=O)O)CCN(CC(=O)O)CCN(CC(=O)O)CC1)C(=O)N[C@H]1CC(=O)NCCCC[C@@H](C(N)=O)NC(=O)[C@H](Cc2c[nH]c3ccccc23)NC(=O)[C@H](CCCNC(=N)N)NC(=O)[C@@H](Cc2ccccc2)NC(=O)[C@H](Cc2c[nH]cn2)NC1=O [copper-64 labelled]		female C57 mouse, B16/F1 melanoma, skin	intravenous, 0.037 MBq, 24 h	0.46 ± 0.4 %ID/g
CN(C)c1ccc(-c2nc3ccc(OCCCCCN4CCN5CCN(CC4)CC(=O)[O][Al]([18F])[O]C(=O)C5)cc3s2)cc1		ICR mouse, pancreas	intravenous, 30 min	1.2 ± 0.2 %ID/g
O=C(O)C1CN(Cc2ccc(-c3noc(-c4ccc(OCC[18F])c(C(F)(F)F)c4)n3)cc2)C1		Sprague-Dawley rat, male, normal, fat	iv, 30 min	0.061 ± 0.003 %ID/g
CC(C)[C@H](NC(=O)[C@@H]1CCCN1C(=O)[C@H](CCCNC(=N)N)NC(=O)[C@H](CS)NC(=O)[C@H](Cc1c[nH]c2ccccc12)NC(=O)[C@H](CCCNC(=N)N)NC(=O)[C@@H](Cc1ccccc1)NC(=O)[C@H](Cc1c[nH]cn1)NC(=O)[C@H](CCC(=O)O)NC(=O)[C@H](CS)NC(=O)[C@H](CS)NC(=O)CNC(=O)[C@@H]1CC(=O)N[C@@H](CCCNC(=N)N)C(=O)NCC(=O)N[C@@H](CC(=O)O)C(=O)N[C@H](Cc2ccc(O)cc2)C(=O)N1)C(N)=O [technetium-99m labelled]		C57 mouse, female, B16/F1 melanoma, pancreas	intravenous, 0.037 MBq, 0.5 h	1.74 ± 0.29 %ID/g
O=C([O-])c1cccc(CN(CCN(Cc2cn(Cc3ccccc3)nn2)Cc2cccc(C(=O)[O-])n2)Cc2cn(Cc3ccccc3)nn2)n1.[64Cu+2]		healthy athymic nude mice, spleen	intravenous, 4 h	3.72 %ID/g
CN1C(=O)[C@@H](Cc2ccc(O)c(I)c2)NC(=O)CNC(=O)[C@H](Cc2ccc3ccccc3c2)NC(=O)[C@H](CCCNC(=N)N)NC(=O)[C@H]1CCCNC(=O)c1ccc(CNC(=O)CN2CCN(CC(=O)O)CCN(CC(=O)O)CCN(CC(=O)O)CC2)cc1 [lutetium-177 labelled]	measured: 177Lu radioactivity	female CB-17 SCID mice, Daudi xenograft, kidney	intravenous, 0.16 nmol per mouse, 96 h	0.85 ± 0.15 %ID/g
CCCC[C@H](NC(=O)CNC(=O)CNC(=O)CN1CCN(CC(=O)O)CCN(CC(=O)O)CCN(CC(=O)O)CC1)C(=O)N[C@H]1CC(=O)NCCCC[C@@H](C(N)=O)NC(=O)[C@H](Cc2c[nH]c3ccccc23)NC(=O)[C@H](CCCNC(=N)N)NC(=O)[C@@H](Cc2ccccc2)NC(=O)[C@H](Cc2c[nH]cn2)NC1=O [lead-203 labelled]		C57 mouse, pancreas	intravenous, 0.056 MBq, 4 h	0.07 ± 0.11 %ID/g
C[C@H](CN(C)Cc1ccccc1)NC(=O)c1ccc(-c2noc(C(F)(F)[18F])n2)cc1	PET imaging	female Sprague-Dawley rats, heart	intravenous, 30 min	0.52 ± 0.16 SUV
CCCC[C@H](NC(=O)CNC(=O)CNC(=O)CN1CCN(CC(=O)O)CCN(CC(=O)O)CC1)C(=O)N[C@H]1CC(=O)NCCCC[C@@H](C(N)=O)NC(=O)[C@H](Cc2c[nH]c3ccccc23)NC(=O)[C@H](CCCNC(=N)N)NC(=O)[C@@H](Cc2ccccc2)NC(=O)[C@H](Cc2c[nH]cn2)NC1=O [gallium-67 labelled]		female C57 mice, B16/F1 melanoma, blood	intravenous, 0.037 MBq, 0.5 h	2.25 ± 0.09 %ID/g
NC12CNCCNCC(NCc3ccc(CNC(=O)CCCC(=O)NCc4ccc(-c5nncnn5)cc4)cc3)(CNCCNC1)CNCCNC2.[64Cu+2]		athymic nude mice SW1222 xenograft, muscle	1 h post injection, 24 h accumulation interval, together with: huA33-TCO pretargeting	0.38 ± 0.06 %ID/g

Repeated from above:
Structure (SMILES)	test	test system	setting	tissue uptake
CCCC[C@H](NC(=O)CNC(=O)CNC(=O)CN1CCN(CC(=O)O)CCN(CC(=O)O)CC1)C(=O)N[C@H]1CC(=O)NCCCC[C@@H](C(N)=O)NC(=O)[C@H](Cc2c[nH]c3ccccc23)NC(=O)[C@H](CCCNC(=N)N)NC(=O)[C@@H](Cc2ccccc2)NC(=O)[C@H](Cc2c[nH]cn2)NC1=O [gallium-67 labelled]		female C57 mice, B16/F1 melanoma, blood	intravenous, 0.037 MBq, 0.5 h	2.25 ± 0.09 %ID/g
